Results gathered from unrelated publications.
Compare with care: the assays were run in different laboratories.
Organism: Staphylococcus aureus

SMILES = c1ccc(CCNC2CCCc3c2[nH]c2ccc(C4CCCCC4)cc32)cc1 (stereo not drawn); assay = microbial growth, broth dilution; test system = MRSA USA300; MIC = 4 µg/mL
SMILES = CC(C)CCCCCCCCC/C=C/C(=O)N[C@@H](CC(N)=O)C(=O)N[C@H]1CNC(=O)[C@@H]2CCCN2C(=O)[C@H](C(C)C)NC(=O)[C@@H](CN)NC(=O)CNC(=O)[C@H](CC(=O)O)NC(=O)CNC(=O)[C@H](CC(=O)O)NC(=O)[C@H](CC(=O)O)NC(=O)[C@H]2CCCCN2C1=O; assay = broth microdilution; test system = BR-VRSA strain 880, Mueller-Hinton broth, Mg2+ 10 mg/L; setting = 16 h, with: Ca2+ 10 mM; MIC = 0.5 µg/mL
SMILES = CC[C@H]1OC(=O)[C@H](C)[C@@H](OC(=O)Cc2c(F)cc([N+](=O)[O-])cc2F)[C@H](C)[C@@H](O[C@@H]2O[C@H](C)C[C@H](N(C)C)[C@H]2O)[C@](C)(OC)C[C@@H](C)C(=O)[C@H](C)[C@@H](O)[C@]1(C)O; test system = BAA-976 msr(A); MIC = < 1 µg/mL
SMILES = CCn1c(-c2ccc(F)cc2)c(-c2ccc(F)cc2)n(CC)c1=[Se]; assay = microbial growth, broth dilution; test system = ATCC700699 VISA; setting = 24 h, drug-resistant strain; MIC = > 40 µM
SMILES = CC[C@H](C)[C@H](NC(=O)[C@@H](CCCNC(=N)N)NC(=O)[C@H](CCCNC(=N)N)NC(=O)[C@H](CO)NC(=O)[C@H](Cc1c[nH]c2ccccc12)NC(=O)[C@H](CCCNC(=N)N)NC(=O)[C@@H]1CCCN1C(=O)[C@H](CCCNC(=N)N)NC(=O)[C@@H]1CCCN1C(=O)[C@H](CC(C)C)NC(=O)[C@H](Cc1ccc(O)cc1)NC(=O)[C@@H]1CCCN1C(=O)[C@@H]1CCCN1C(=O)[C@H](CCCCN)NC(=O)[C@H](CC(=O)O)NC(=O)[C@@H](N)C(C)C)C(=O)N[C@@H](Cc1ccc(O)cc1)C(=O)N[C@@H](CC(N)=O)C(=O)N[C@H](CCCNC(=N)N)C(N)=O; assay = broth microdilution; test system = DSM 6247; setting = 18 h, 37 °C, 25% MHB2; MIC = 64 µg/mL
SMILES = C#CCNC(=O)[C@H]1NC(=O)[C@H]2NC(=O)[C@H](NC(=O)[C@@H]3NC(=O)[C@H](CC(N)=O)NC(=O)[C@H](NC(=O)[C@@H](CC(C)C)NC)[C@H](O)c4ccc(c(Cl)c4)Oc4cc3cc(c4O[C@@H]3O[C@H](CO)[C@@H](O)[C@H](O)[C@H]3O[C@H]3C[C@](C)(N)[C@H](O)[C@H](C)O3)Oc3ccc(cc3Cl)[C@H]2O)c2ccc(O)c(c2)-c2c(O)cc(O)cc21; assay = broth microdilution; test system = VISA NRS402, tryptic soy broth; setting = 20 to 24 h, 37 °C, 0.002% polysorbate 80; MIC = 4 µg/mL
SMILES = Cc1c(CN(C)C(=O)/C=C/c2cnc3c(c2)CC(N)C(=O)N3)oc2ccccc12 (stereo not drawn); assay = broth microdilution; test system = ATCC 29213; setting = 50% human serum; MIC = 0.062 µg/mL
SMILES = Oc1c(Br)cc(Br)c2nc3cc(Cl)ccc3nc12; assay = broth microdilution; test system = MRSA 1707; setting = 16 h, 37 °C; MIC = 0.08 µM
SMILES = CC[C@H](C)[C@H](NC(=O)CNC(=O)[C@@H](NC(=O)CNC(=O)[C@@H](NC(=O)CNC(=O)[C@@H](NC(=O)[C@@H](NC(=O)[C@H](CCC(N)=O)NC(=O)[C@H](CCC(=O)O)NC(=O)[C@@H](NC(=O)[C@H](CC(C)C)NC(=O)[C@H](CCCNC(=N)N)NC(=O)[C@H](Cc1ccccc1)NC(=O)[C@@H](NC(=O)[C@H](CC(N)=O)NC(=O)[C@H](CCCCN)NC(=O)CNC(=O)[C@H](CCSC)NC(=O)[C@H](CCCCN)NC(=O)CNC(=O)[C@H](CC(C)C)NC(=O)[C@H](CCCCN)NC(=O)[C@H](CCCCN)NC(=O)CNC(=O)[C@H](Cc1ccccc1)NC(=O)[C@H](CCCCN)NC(=O)[C@H](CCCCN)NC(=O)[C@H](CC(C)C)NC(=O)[C@H](Cc1c[nH]c2ccccc12)NC(=O)CN)C(C)C)C(C)C)C(C)C)C(C)C)C(C)C)C(C)C)C(=O)N[C@@H](CC(N)=O)C(=O)N[C@@H](C)C(=O)N[C@@H](CC(C)C)C(=O)N[C@@H](CO)C(=O)O; assay = broth microdilution; test system = ATCC 25923; MIC = 1.24 log10 µg/mL
SMILES = CCCCCCCC[C@H](NC(=O)[C@@H]1CSC([C@@H](N)[C@@H](C)CC)=N1)C(=O)N[C@H](CCC(=O)O)C(=O)N[C@H](C(=O)N[C@H]1CCCCNC(=O)[C@H](CC(N)=O)NC(=O)[C@@H](CC(=O)O)NC(=O)[C@H](Cc2c[nH]cn2)NC(=O)[C@@H](Cc2ccccc2)NC(=O)[C@H]([C@@H](C)CC)NC(=O)[C@@H](CCCN)NC1=O)[C@@H](C)CC; test system = USA300 MRSA; setting = with: ZnSO4 0.3 mM; MIC = 1 µg/mL
SMILES = C#CCOc1ccc(CN[C@@]2(C)C[C@H](O[C@H]3[C@H](Oc4c5cc6cc4Oc4ccc(cc4Cl)[C@@H](O)[C@@H](NC(=O)[C@@H](CC(C)C)NC)C(=O)N[C@@H](CC(N)=O)C(=O)N[C@H]6C(=O)N[C@H]4C(=O)N[C@H](C(=O)N[C@H](C(=O)N[C@@H](CCCNC(=N)N)C(N)=O)c6cc(O)cc(O)c6-c6cc4ccc6O)[C@H](O)c4ccc(c(Cl)c4)O5)O[C@H](CO)[C@@H](O)[C@@H]3O)O[C@@H](C)[C@H]2O)cc1OC; test system = NRS402 VISA; MIC = 2 µM
SMILES = CC[C@H](C)[C@H](NC(=O)[C@H](CCCCN)NC(=O)[C@@H](NC(=O)[C@@H](NC(=O)[C@H](CC(C)C)NC(=O)[C@H](CCCNC(=N)N)NC(=O)[C@@H](NC(=O)[C@H](CC(C)C)NC(=O)[C@H](CCCNC(=N)N)NC(=O)CNC(=O)[C@H](Cc1ccccc1)NC(=O)[C@@H](N)CCCNC(=N)N)[C@@H](C)CC)[C@@H](C)CC)C(C)C)C(=O)N[C@@H](C)C(=O)N[C@@H](CCCNC(=N)N)C(=O)N[C@@H](CCCNC(=N)N)C(=O)N[C@@H](C)C(=O)N[C@@H](Cc1c[nH]cn1)C(=O)N[C@@H](CCCNC(=N)N)C(=O)N[C@@H](C)C(=O)N[C@@H](CCCNC(=N)N)C(=O)N[C@@H](CO)C(=O)N[C@@H](C)C(=O)N[C@H](C(=O)N[C@@H](CCCCN)C(=O)N[C@@H](C)C(=O)N[C@@H](C)C(=O)N[C@@H](CO)C(=O)N[C@@H](CC(N)=O)C(=O)N[C@H](C(=O)N[C@@H](C)C(=O)N[C@@H](C)C(=O)N[C@@H](CC(C)C)C(=O)N[C@@H](C)C(=O)N[C@@H](Cc1c[nH]cn1)C(=O)NCC(=O)N[C@@H](C)C(=O)O)C(C)C)C(C)C; assay = broth microdilution; setting = 18 h, 37 °C; MIC = 1.03 µM
SMILES = COc1ccc2c(c1OC)C[NH+]1CCc3cc4c(cc3C1C2)OCO4.[Cl][Fe-]([Cl])([Cl])[Cl] (stereo not drawn); setting = 24 h, 37 °C; MIC = > 1600 µM
SMILES = N=C(N)NCCC[C@@H]1NC(=O)[C@H](CCCNC(=N)N)NC(=O)[C@H](CCCNC(=N)N)NC(=O)[C@@H](CCCNC(=N)N)NC(=O)[C@H](Cc2ccc3ccccc3c2)NC(=O)[C@H](Cc2ccc3ccccc3c2)NC(=O)[C@H](Cc2ccc3ccccc3c2)NC1=O; test system = 1193193, MRSA; MIC = 4 µg/mL
SMILES = CC[C@H](C)[C@H](NC(=O)[C@@H](CCCNC(=N)N)NC(=O)[C@H](CCCNC(=N)N)NC(=O)[C@H](Cc1c[nH]c2ccccc12)NC(=O)[C@H](Cc1c[nH]c2ccccc12)NC(=O)[C@H](CCCNC(=N)N)NC(=O)[C@@H]1CCCN1C(=O)[C@H](CCCNC(=N)N)NC(=O)[C@@H]1CCCN1C(=O)[C@H](CC(C)C)NC(=O)[C@H](Cc1ccc(O)cc1)NC(=O)[C@@H]1CCCN1C(=O)[C@@H]1CCCN1C(=O)[C@H](CCCCN)NC(=O)[C@H](CC(=O)O)NC(=O)[C@@H](N)C(C)C)C(=O)N[C@@H](Cc1ccc(O)cc1)C(=O)N[C@@H](CC(N)=O)C(=O)N[C@H](CCCNC(=N)N)C(N)=O; assay = broth microdilution; test system = DSM 6247; setting = 18 h, 37 °C, 25% MHB2; MIC = 32 µg/mL
SMILES = CC[C@H](C)[C@H](NC(=O)[C@H](CCCNC(=N)N)NC(=O)[C@@H](NC(=O)[C@@H](NC(=O)[C@H](CCCNC(=N)N)NC(=O)[C@H](CCCCN)NC(=O)[C@H](Cc1ccccc1)NC(=O)[C@H](CCCNC(=N)N)NC(=O)[C@H](CCCCN)NC(=O)[C@@H](NC(=O)[C@@H](N)CCCCN)[C@@H](C)CC)[C@@H](C)CC)C(C)C)C(=O)N[C@@H](CCCCN)C(=O)N[C@@H](Cc1ccccc1)C(=O)N[C@@H](CC(C)C)C(=O)N[C@@H](CCCNC(=N)N)C(=O)N[C@H](C(=O)N[C@H](C(=O)N[C@@H](CCCNC(=N)N)C(=O)N[C@@H](CCCNC(=N)N)C(N)=O)C(C)C)C(C)C; assay = broth microdilution; test system = 25295; MIC = 2.5 µg/mL
SMILES = C#CCOc1ccc(CN[C@@]2(C)C[C@H](O[C@H]3[C@H](Oc4c5cc6cc4Oc4ccc(cc4Cl)[C@@H](O)[C@@H](NC(=O)[C@@H](CC(C)C)NC)C(=O)N[C@@H](CC(N)=O)C(=O)N[C@H]6C(=O)N[C@H]4C(=O)N[C@H](C(=O)N[C@H](C(=O)NCC(N)=O)c6cc(O)cc(O)c6-c6cc4ccc6O)[C@H](O)c4ccc(c(Cl)c4)O5)O[C@H](CO)[C@@H](O)[C@@H]3O)O[C@@H](C)[C@H]2O)cc1OC; test system = MRSA USA300; MIC = 0.298 µM
SMILES = CC[C@H](C)[C@H](N)C(=O)N[C@@H](CCCNC(=N)N)C(=O)N[C@H](C(=O)N[C@@H](Cc1c[nH]c2ccccc12)C(=O)N[C@@H](Cc1ccccc1)C(=O)N[C@H](C(=O)N[C@@H](CCCCN)C(=O)N[C@H](C(=O)N[C@@H](CCCNC(=N)N)C(=O)N[C@@H](CCCCN)C(=O)N[C@@H](CCSC)C(=O)N[C@@H](CCCCN)C(=O)N[C@@H](C)C(=O)N[C@H](C(=O)N[C@@H](Cc1ccc(O)cc1)C(=O)N[C@@H](Cc1c[nH]cn1)C(=O)N[C@H](C(N)=O)[C@@H](C)O)[C@@H](C)CC)C(C)C)[C@@H](C)CC)C(C)C; assay = broth dilution; test system = ATCC 25923, Mueller-Hinton broth; setting = 24 h, 37 °C; MIC = 50 µM

A few entries again:
SMILES = C#CCNC(=O)[C@H]1NC(=O)[C@H]2NC(=O)[C@H](NC(=O)[C@@H]3NC(=O)[C@H](CC(N)=O)NC(=O)[C@H](NC(=O)[C@@H](CC(C)C)NC)[C@H](O)c4ccc(c(Cl)c4)Oc4cc3cc(c4O[C@@H]3O[C@H](CO)[C@@H](O)[C@H](O)[C@H]3O[C@H]3C[C@](C)(N)[C@H](O)[C@H](C)O3)Oc3ccc(cc3Cl)[C@H]2O)c2ccc(O)c(c2)-c2c(O)cc(O)cc21; assay = broth microdilution; test system = VISA NRS402, tryptic soy broth; setting = 20 to 24 h, 37 °C, 0.002% polysorbate 80; MIC = 4 µg/mL
SMILES = CC[C@H](C)[C@H](NC(=O)[C@H](CCCNC(=N)N)NC(=O)[C@@H](NC(=O)[C@@H](NC(=O)[C@H](CCCNC(=N)N)NC(=O)[C@H](CCCCN)NC(=O)[C@H](Cc1ccccc1)NC(=O)[C@H](CCCNC(=N)N)NC(=O)[C@H](CCCCN)NC(=O)[C@@H](NC(=O)[C@@H](N)CCCCN)[C@@H](C)CC)[C@@H](C)CC)C(C)C)C(=O)N[C@@H](CCCCN)C(=O)N[C@@H](Cc1ccccc1)C(=O)N[C@@H](CC(C)C)C(=O)N[C@@H](CCCNC(=N)N)C(=O)N[C@H](C(=O)N[C@H](C(=O)N[C@@H](CCCNC(=N)N)C(=O)N[C@@H](CCCNC(=N)N)C(N)=O)C(C)C)C(C)C; assay = broth microdilution; test system = 25295; MIC = 2.5 µg/mL
SMILES = COc1ccc2c(c1OC)C[NH+]1CCc3cc4c(cc3C1C2)OCO4.[Cl][Fe-]([Cl])([Cl])[Cl] (stereo not drawn); setting = 24 h, 37 °C; MIC = > 1600 µM
